Published values of several laboratories.
Parts stem from different laboratories: compare values within a part only. Substitutions count along the parent as printed.

Sample 1 — target: CEP164, C-terminal peptide (human); technique: DHFR complementation, deep sequencing; matrix: yeast; reference: wild type; reading: higher = weaker binding
Setting: single substitutions, model-inferred values
Starting sequence: PDZK1, PDZ domain 2 (human); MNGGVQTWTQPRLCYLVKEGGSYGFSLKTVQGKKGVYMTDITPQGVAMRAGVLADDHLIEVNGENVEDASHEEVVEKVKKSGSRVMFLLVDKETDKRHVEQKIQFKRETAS; partner HNRVKVYRF
| Change | binding free energy change [kcal/mol] |
| --- | --- |
| G32W | 0.2 |
| L16I | 0.924 |
| Y15Q | 0.0581 |
| G3F | -0.042 |
| V75C | 0.484 |
| Q6L | 0.0703 |
| K96M | -0.122 |
| Y23P | 1.39 |

Sample 2 — technique: DHFR PCA, deep sequencing; matrix: yeast; with: (+)-ABA 1.4 µM; reference: wild-type fitted maximum; reading: higher = stronger binding
Target: ABI1, truncated, D143A, DHFR fusion (Arabidopsis thaliana)
Setting: methotrexate growth selection, single substitutions
Starting sequence: PYL1, truncated, DHFR fusion (Arabidopsis thaliana); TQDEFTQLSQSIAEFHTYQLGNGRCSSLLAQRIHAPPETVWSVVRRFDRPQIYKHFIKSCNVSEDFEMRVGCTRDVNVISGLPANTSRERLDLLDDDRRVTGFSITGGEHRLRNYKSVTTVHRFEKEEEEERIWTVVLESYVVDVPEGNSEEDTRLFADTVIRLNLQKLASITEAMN; partner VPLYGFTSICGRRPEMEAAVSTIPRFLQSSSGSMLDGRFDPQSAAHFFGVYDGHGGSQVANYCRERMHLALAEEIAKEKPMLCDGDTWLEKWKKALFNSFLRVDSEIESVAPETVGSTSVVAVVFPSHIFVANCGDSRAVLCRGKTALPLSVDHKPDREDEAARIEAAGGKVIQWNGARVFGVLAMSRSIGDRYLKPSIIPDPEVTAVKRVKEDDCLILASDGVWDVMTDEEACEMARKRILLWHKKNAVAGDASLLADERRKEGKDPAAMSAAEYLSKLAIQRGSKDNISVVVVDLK
| Change | relative binding score [%] |
| --- | --- |
| V145L | -10 |
| E67M | 31.1 |
| R24N | 20.4 |
| E64T | 48.4 |
| C72D | 56 |
| E89W | 5.89 |
| V161R | 4.13 |
| I172F | 1.82 |

Mixed results — concentration: not given
FOXP2 N303T/S325N N-truncated, polyQ removed: Forkhead box protein P2, N-truncated, polyQ removed (FOXP2, Homo sapiens, UniProt O15409, residues 214-715, N303T/S325N)
Chain of UniProt O15409 (214-715, unmodified, looked up): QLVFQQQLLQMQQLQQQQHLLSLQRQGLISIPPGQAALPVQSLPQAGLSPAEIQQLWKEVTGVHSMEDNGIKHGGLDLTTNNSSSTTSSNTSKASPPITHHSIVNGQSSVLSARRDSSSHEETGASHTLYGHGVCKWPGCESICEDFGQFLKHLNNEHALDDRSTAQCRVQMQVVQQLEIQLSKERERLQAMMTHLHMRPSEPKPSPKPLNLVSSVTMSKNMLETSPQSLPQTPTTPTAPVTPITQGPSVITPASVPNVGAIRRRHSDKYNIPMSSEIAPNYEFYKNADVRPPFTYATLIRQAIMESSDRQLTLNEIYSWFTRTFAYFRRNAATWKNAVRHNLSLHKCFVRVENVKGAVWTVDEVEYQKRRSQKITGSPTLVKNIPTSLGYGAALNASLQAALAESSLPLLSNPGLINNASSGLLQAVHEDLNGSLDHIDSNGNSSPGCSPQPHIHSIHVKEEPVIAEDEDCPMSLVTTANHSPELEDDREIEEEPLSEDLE
P1: PafA, mature enzyme, eGFP fusion (Elizabethkingia meningoseptica, UniProt Q9KJX5); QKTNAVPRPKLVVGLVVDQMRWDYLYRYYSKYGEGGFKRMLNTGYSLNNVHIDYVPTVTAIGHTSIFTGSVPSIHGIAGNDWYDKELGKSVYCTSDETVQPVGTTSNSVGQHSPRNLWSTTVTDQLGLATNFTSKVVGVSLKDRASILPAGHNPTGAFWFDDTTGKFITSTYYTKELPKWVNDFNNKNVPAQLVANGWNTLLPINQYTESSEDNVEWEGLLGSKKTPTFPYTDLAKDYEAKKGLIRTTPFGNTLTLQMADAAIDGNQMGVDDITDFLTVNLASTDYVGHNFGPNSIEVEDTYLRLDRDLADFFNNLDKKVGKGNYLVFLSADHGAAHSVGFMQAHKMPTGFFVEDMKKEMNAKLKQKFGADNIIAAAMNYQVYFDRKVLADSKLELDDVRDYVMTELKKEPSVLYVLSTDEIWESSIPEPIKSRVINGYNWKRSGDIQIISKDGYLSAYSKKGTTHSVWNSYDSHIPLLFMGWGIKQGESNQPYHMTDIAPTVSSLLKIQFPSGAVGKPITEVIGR
| Molecule | target | assay | test system | conditions | scale | quantity | result |
| --- | --- | --- | --- | --- | --- | --- | --- |
| CGCCTGTTACGGCATCAGGGCTTTGGTTTGGGATGGCTGCTTCTTTACCAATTGTTCCGGCGGTATGAC | FOXP2 N303T/S325N N-truncated, polyQ removed | MITOMI | double-stranded DNA, one strand shown, in vitro | 69-bp whole dsDNA, apparent Ka, titration fit | reference: unmutated reference site, higher = stronger binding | relative association constant | 0.0433 fold |
| P1 V327A | inorganic phosphate, free oxyanion | microfluidic competitive inhibition | in vitro, cell-free expressed | derived from inhibition constants, unchanged parent 615000 nM | lower = stronger binding | phosphate dissociation constant | 629 µM |
| CGCCTGTTACGGCATCAGGGCTTTGGTTTGGGATGGCTGCTTTTTTACCAATTGTTCCGGCGGTATGAC | FOXP2 N303T/S325N N-truncated, polyQ removed | MITOMI | double-stranded DNA, one strand shown, in vitro | 69-bp whole dsDNA, apparent Ka, titration fit | reference: unmutated reference site, higher = stronger binding | relative association constant | 0.0499 fold |

Some of these lines once more (mixed results):
| Molecule | target | assay | test system | conditions | scale | quantity | result |
| --- | --- | --- | --- | --- | --- | --- | --- |
| CGCCTGTTACGGCATCAGGGCTTTGGTTTGGGATGGCTGCTTCTTTACCAATTGTTCCGGCGGTATGAC | FOXP2 N303T/S325N N-truncated, polyQ removed | MITOMI | double-stranded DNA, one strand shown, in vitro | 69-bp whole dsDNA, apparent Ka, titration fit | reference: unmutated reference site, higher = stronger binding | relative association constant | 0.0433 fold |
| P1 V327A | inorganic phosphate, free oxyanion | microfluidic competitive inhibition | in vitro, cell-free expressed | derived from inhibition constants, unchanged parent 615000 nM | lower = stronger binding | phosphate dissociation constant | 629 µM |
| CGCCTGTTACGGCATCAGGGCTTTGGTTTGGGATGGCTGCTTTTTTACCAATTGTTCCGGCGGTATGAC | FOXP2 N303T/S325N N-truncated, polyQ removed | MITOMI | double-stranded DNA, one strand shown, in vitro | 69-bp whole dsDNA, apparent Ka, titration fit | reference: unmutated reference site, higher = stronger binding | relative association constant | 0.0499 fold |
